Assay results of several laboratories.
“And” joins repeats or separate records; there may be more than shown. ± marks the error that the study gave.

| Structure (SMILES) | target or system | test | system | setting | how to read | endpoint | result |
| --- | --- | --- | --- | --- | --- | --- | --- |
| COc1ncc(-c2nc3c(n2C(C)C)[C@H](c2ccc(Cl)cc2)N(c2cc(Cl)cn(C)c2=O)C3=O)c(OC)n1 |  | International Working Group criteria | human acute myeloid leukemia patients | oral, 45 mg, response CRi, low-dose, recommended dose for expansion |  | best overall response | 14.8% |
| CCOCc1nc(O)c(-c2nnc(Cc3ccc(Cl)cn3)o2)c(O)c1-c1c(OC)cccc1OC |  |  | instrumented anaesthetised rat | intravenous infusion, 10 µg/kg/min for 15 min, 15 min | reference: baseline | MAP change | -1.9 ± 0.5% |
| Cc1cc([C@H]2C[C@H]3[C@@H](C)SC(N)=N[C@@]3(c3ccc(F)cc3F)CO2)on1 |  | item: Aβx-42 | Mus musculus wild-type, brain | subcutaneous, 50 mg/kg, 1 h |  | Aβ42 level | 0.3 ng/g |
| FC(F)(F)Oc1cccc(-c2cnc3ccc(-c4ccncc4)nn23)c1 |  | bioluminescence imaging | mouse, MDA-MB-231-Luc xenograft | 10 mg/kg, day 14 |  | tumour bioluminescence | 1.85e+10 photons/s and 5.24e+10 photons/s and 2.9e+10 photons/s and 2.75e+10 photons/s and 5.32e+10 photons/s and 2.42e+10 photons/s |
| COc1cc2cc(-c3ccc(CC(=O)Nc4cc(C(C)(C)C(F)(F)F)no4)cn3)cnc2cc1OC |  | RECIST v1.1 | human RET-altered solid tumours | 13 100 mg tablets, phase I |  | disease control rate | 88% |
| Cc1n[nH]c2ccc(-c3cc(OC[C@@H](N)Cc4ccccc4)cnc3-c3ccoc3)cc12 |  | kinase binding, competitor, MIB/MS competition, item: PBS2 | Candida albicans cell lysate | 1 µM | reference: DMSO | log2 fold change | -0.0528 |
| CCN1CCN(Cc2ccc(Nc3ncc(F)c(-c4cc(F)c5nc6n(c5c4)[C@H](C)CCC6)n3)nc2)CC1 |  |  | human advanced solid tumours | 400 mg, phase Ia monotherapy RECIST 1.1 |  | median progression-free survival | 22.3 months |
| O=C(O)CCC(=O)O.[2H]C([2H])([2H])Oc1cc(C)c2[nH]ccc2c1CN1CC[C@@H](C2CC2)C[C@H]1c1ccc(C(=O)O)cc1 |  | alternative complement pathway activity, Wieslab ELISA | human, serum | 100 mg twice daily, multiple ascending dose |  | trough inhibition | > 90% |
| Cc1[nH]c(/C=C2\C(=O)Nc3ccc(S(=O)(=O)Cc4c(Cl)cccc4Cl)cc32)c(C)c1C(=O)N1CCC[C@@H]1CN1CCCC1 | THP-1 | pyroptotic LDH release |  | 2 µM, 40 min, added: LPS then nigericin |  | inhibition | 64.4% |
| C=C1CC[C@H](OCCCNC(=O)CCOCCOCCOCCOCCOCCOCCOCCOCCOCCOCCOCCOCCOCCOCCOCCOCCOCCOCCOCCOCCOCCOCCOCCOCCOCCOCCOCCOCCOCCOCCOCCOCCOCCOCCOCCOCCNC(=O)CCN2C(=O)CC(SC[C@H](NC(=O)[C@H](CCCNC(=N)N)NC(=O)[C@@H]3CCCN3C(=O)[C@H](CCC(N)=O)NC(=O)[C@H](CC(C)C)NC(=O)[C@H](CCCCN)NC(=O)[C@H](C)NC(=O)[C@@H]3CCCN3C(=O)[C@@H]3CCCN3C(=O)[C@H](CCCCN)NC(=O)[C@H](CCCCN)NC(=O)[C@H](CO)NC(=O)[C@H](CCC(=O)O)NC(=O)[C@H](CCCCN)NC(=O)[C@H](CCCNC(=N)N)NC(=O)[C@H](CCC(N)=O)NC(=O)[C@H](CCC(N)=O)NC(=O)[C@@H](NC(=O)[C@H](CCCNC(=N)N)NC(=O)[C@H](CCC(N)=O)NC(=O)[C@H](Cc3c[nH]cn3)NC(=O)[C@H](CCC(=O)O)NC(=O)[C@@H]3CCCN3C(=O)[C@H](CO)NC(=O)[C@H](CC(C)C)NC(=O)[C@H](Cc3ccccc3)NC(=O)[C@H](CNC(=O)CCCCCCC)NC(=O)[C@H](CO)NC(=O)CN)C(C)C)C(=O)O)C2=O)C/C1=C/C=C1\CCC[C@]2(C)[C@@H]([C@H](C)CCCC(C)(C)O)CC[C@@H]12 (stereo partly drawn) |  | real-time RT-PCR, item: Tnf and Ccl2 | mice, LLC tumour-bearing, tibialis anterior | daily or every other day | reference: tumour-bearing vehicle | mRNA level | no effect |
| CCc1cc(Cl)c(OC)c(C(=O)NC[C@@H]2CCCN2CC)c1O |  |  | CeA D2 receptor-positive neurons, mouse, central amygdala | i.p., 2 mg/kg |  | optogenetically evoked calcium signal | inhibited |
| COc1ccc(-c2cncc(N[C@@H](C)c3cccc(NC(=O)c4cncc(C)c4)c3)n2)cc1OC |  | item: rno-miR-365-3p | rat SU5416/hypoxia model, lung | dose not given, unit not given | reference: SU5416/hypoxia vehicle | delta delta Ct | 0.26 |
| Clc1ccc(N/N=C(\c2ccccc2)c2ccccn2)nc1 |  | western blot | NOD/SCID mice, tumour cells | dose not given |  | global H3K4me3 level | no effect |
| Oc1ccc(Br)cc1C=NCCN1CCOCC1 |  | nitric oxide scavenging |  | 80 µM |  | inhibition | 15.6% |
| Cn1cc(Nc2nccc(-c3ccc4c(c3)CN(C3COC3)CC[C@H]4NC(=O)c3cn(C(C)(C)C)nn3)n2)cn1 |  | item: G Beta Gamma Signaling | splenic B cells, mouse | in vivo, 30 mg/kg, IgD-activated B cells | reference: vehicle, positive = activation | pathway activation z-score | 3.61 |
| CC1(C)CC[C@]2(NC(=O)C(C)(F)F)CC[C@]3(C)[C@H](C(=O)C=C4[C@@]5(C)C=C(C#N)C(=O)C(C)(C)[C@@H]5CC[C@]43C)[C@@H]2C1 | THP-1 | pyroptotic LDH release |  | 2 µM, 40 min, added: LPS then nigericin |  | inhibition | 89.2% |
| COc1cc(/C=C/C(=O)CC(=O)/C=C/c2ccc(O)c(OC)c2)ccc1O |  |  | rat, high-fat diet hyperlipaemia | oral, 200 mg/kg daily, 4 weeks |  | body weight gain | 71.5 ± 13.2 g |
| C=CCn1c(=O)c2cnc(Nc3ccc(N4CCN(C)CC4)cc3)nc2n1-c1ccc2c(n1)[C@@](O)(CC)CC2 |  |  | PC-9 xenograft, CB17 SCID mice | oral, 80 mg/kg, day 18, once daily x 19 |  | tumour volume difference | 299 ± 12.9 mm3 |
| COc1nc(NCc2cn(-c3ccc(NC(=O)c4ccccc4)cc3)nn2)nc(OC)n1 |  | MTT | normal colonocytes, rat | 72 h |  | maximum non-toxic concentration | 1.9 ± 0.26 nM |
| C[C@@H](NC(=O)N1C(=O)[C@H](Cc2ccnc(N)c2)[C@H]1C(=O)O)C1CCCCC1 |  |  | human | iv infusion, 0.6 mg/kg/h, 24 h, unit not given | reference: baseline | ACT Emax | 1.05 |

| Structure (SMILES) | target or system | test | system | setting | how to read | endpoint | result |
| --- | --- | --- | --- | --- | --- | --- | --- |
| NCC(=O)Nc1cncc(-c2nn3c(=O)cc(N4CCNCC4)nc3s2)c1 |  | ADP-induced platelet aggregation, light transmission aggregometry | human, stable CAD on aspirin, platelets ex vivo | subcutaneous, 0.075 mg/kg, 180 min post-dose, added: ADP 20 µM |  | median inhibition | 0.95% |
| C[C@@H]1CCC[C@H](n2cnc(-c3cc(Cl)ccc3-n3cc(Cl)nn3)cc2=O)c2cc(ccn2)-c2c(cnn2C(F)F)NC1=O |  |  | cynomolgus monkey plasma | IC1.5× aPTT, Actin FS reagent |  | concentration for aPTT prolongation | 500 nM |
| Oc1c(Br)cc(Oc2ccc(Br)cc2Br)cc1Br |  | glucuronidation | human liver microsomes |  |  | Vmax/Km | 116 ± 14.2 µL/min/mg |
| CC(C)c1c(C(=O)Nc2ccccc2)c(-c2ccccc2)c(-c2ccc(F)cc2)n1CC[C@@H](O)C[C@@H](O)CC(=O)O |  |  | cynomolgus monkey, female, serum | 40 mg/kg or 25 mg/kg, day 176, 4224 h |  | LDL-C | 74.7 mg/dL |
| N#Cc1ccc2c(c1)[C@H]1CCCN(C(=O)c3ccc4[nH]cnc4c3)[C@H]1C2 |  |  | T2DM patients with overweight or obesity, urine | oral, 80 mg, day 14, 0-24 h, multiple dosing, adjusted geometric mean | reference: baseline day -1, -24-0 h | total urinary corticosteroid excretion | 176% |
| CC[C@@H](C)[C@@H](NC(=O)[C@@H](Cc1ccc(O)cc1)NC(=O)[C@H]1CCCN1C(=O)[C@@H](CCCNC(=N)N)NC(=O)[C@H](N)Cc1c[nH]cn1)C(=O)N[C@H](C)C(=O)N[C@H](Cc1c[nH]cn1)C(=O)N[C@H](CCCNC(=N)N)C(=O)N[C@@H](C(=O)N[C@H](Cc1ccc(O)cc1)C(=O)N[C@H](CO)C(=O)N[C@H](Cc1ccccc1)C(N)=O)C(C)C |  | ex vivo flow cytometry | MC-38 tumour-bearing mice, tumour | dose not given | reference: CD4+ T cells | IFN-γ+ CD4+ T cells | 1.47% and 6.31% and 4.77% and 4.51% |
| CCN1[C@@H](C(=O)NC23CCC(C(=O)O)(CC2)CC3)[C@H](c2cccc(Cl)c2F)[C@]2(C(=O)Nc3cc(Cl)ccc32)C12CCCCC2 |  |  | human, advanced solid tumours, TP53 wild type | dose not given, sample C patients, RECIST |  | disease control rate | 84.6% |
| OC(CCN1CCCCC1)(c1ccccc1)C1CC2C=CC1C2 (stereo not drawn) |  | resting-state EEG | healthy elderly humans | oral, 4 mg, eyes open, LS mean | reference: baseline | change, Gamma power, EEG Pz-O1 | -2.8% |
| Cc1cc(F)cc2c(CCC(=O)N[C@@H]3C(=O)NC[C@H]3O)c(-c3ccc(F)cc3)[nH]c12 |  |  | APOL1 G2 mice, IFNγ-induced | 30 mg/kg twice daily, day 13 |  | urine albumin/creatinine ratio | 84.3 µg/mg and 63.8 µg/mg and 902 µg/mg and 197 µg/mg and 74.7 µg/mg and 386 µg/mg |
| C[C@H](Oc1ccc(Br)cc1-c1ccon1)C(=O)O |  | muscle velocity recovery cycle | human, tibialis anterior muscle | 600 mg once daily, first response peak at 30 Hz, multiple ascending dose |  | difference from placebo | 13.4% |
| O=C(COc1ccc(Cl)cc1)NC12CC(c3nnc([C@H]4C[C@@H](OC(F)(F)F)C4)o3)(C1)C2 |  | item: ATF4 | PBMC ex vivo stimulated, human ALS patients | 200 mg, D21 predose | reference: baseline | protein level change | -86.9% |
| CN[C@@H]1COc2c(S(=O)(=O)NC(=O)Nc3c4c(cc5c3CCC5)CCC4)cnn2C1 |  | item: IL-18 | human participants, whole blood ex vivo | 1800 mg single dose, 336 h, IL-18, circulating, adjusted for, added: LPS/ATP | reference: baseline | inhibition | 35.5% |
| N=C(N)NCCC[C@H](NC(=O)[C@H](CCCNC(=N)N)NC(=O)[C@H](CCCCN)NC(=O)[C@H](CCC(N)=O)NC(=O)[C@H](CCCCN)NC(=O)[C@H](Cc1ccc(O)cc1)NC(=O)[C@@H](N)CCCCN)C(=O)N[C@@H](CO)C(=O)N[C@@H](Cc1ccc(O)cc1)C(=O)N[C@@H](CCCCN)C(=O)O |  |  | dentin hypersensitivity patients | 5 µg/tooth single, day 22, higher-VAS tooth | reference: baseline | cold water VAS change | -17.5 ± 19.2 mm |
| CC(C)NCC(O)c1ccc(O)c(O)c1 (stereo not drawn) |  |  | ventricular cardiomyocytes, C57BL/6 mouse | dose not given, 0.704 s |  | sarcomere length | 1.72 µm |
| COc1cc(-c2ccccc2)ncc1C(=O)Nc1ccc2c(=O)[nH]c(-c3ccc(C(C)(C)O)cc3)nc2c1 |  | RNA-seq GSEA, item: HALLMARK_BILE_ACID_METABOLISM | organoids, small intestinal, Apc Q1405X, mouse | dose not given, 3 days, wild-type organoids | reference: DMSO, direction not given | normalized enrichment score | -1 |
| CC#CC(=O)N[C@H]1CCCN(c2c(F)cc(C(N)=O)c3[nH]c(C)c(C)c23)C1 |  |  | healthy volunteers, single ascending dose, serum | 3 mg, day 10 |  | change from baseline in serum IgM | 83.3 mg/L |
| COc1nc(NCc2cn(-c3ccc(C(=O)Nc4ccc(Cl)cc4)cc3)nn2)nc(OC)n1 |  | MTT | normal colonocytes, rat | 72 h |  | maximum non-toxic concentration | 35.06 ± 0.23 nM |
| NC(=O)c1cnc2[nH]ccc2c1N[C@@H]1[C@@H]2CC3C[C@H]1C[C@@](O)(C3)C2 |  | flow cytometry, item: CD8+ effector T cells | Japanese healthy subjects, peripheral blood | oral, 30 mg twice daily, day 7 |  | change from baseline | -0.13% |
| Cc1cc([C@H]2C[C@H]3[C@@H](CF)SC(N)=N[C@@]3(c3ccc(F)cc3F)CO2)on1 |  | item: Aβx-40 | wild-type mouse, brain | subcutaneous, 30 mg/kg, 3 h |  | brain Aβ40 level | 1.84 ng/g |
